Experimental data pooled from the literature.
Each line is one published result; not all experiments were run side by side. ± gives the spread as reported.
Cell line: HeLa

| SMILES | assay | setting | how to read | measurement | value |
| --- | --- | --- | --- | --- | --- |
| C[C@@H](NC(=O)[C@H](Cc1ccccc1)NC(=O)[C@@H](CCCNC(=N)N)NC(=O)[C@H](CCCN)NC(=O)[C@@H]1CNC(=O)c2cc3cc(c2)C(=O)N[C@H](Cc2ccc4ccccc4c2)C(=O)N[C@@H](CO)C(=O)N[C@@H](CC(N)=O)C(=O)N[C@H](Cc2ccc4ccccc4c2)C(=O)N[C@@H](c2ccccc2)C(=O)N[C@@H](CCCCNC3=O)C(=O)N[C@H](Cc2ccccc2)C(=O)N[C@@H](CCC(N)=O)C(=O)N[C@H](CCCNC(=N)N)C(=O)N[C@@H](CCCNC(=N)N)C(=O)N1)C(=O)NCCOCCOCC(=O)NCCOCCOCC(=O)N[C@@H](CCCCNC(=O)c1ccc2c(c1)C(=O)OC21c2ccc(O)cc2Oc2cc(O)ccc21)C(N)=O | flow cytometry | 5 µM, 2 h, 1% FBS | relative to: CPP12 | cellular uptake | 226% |
| COc1cccc(NCC(C)(O)Cn2c3ccc(Br)cc3c3cc(Br)ccc32)c1 (stereo not shown) | CellTiter-Glo | 48 h | – | GI50 | 10.9 µM |
| CC[C@H](C)[C@@H]1NC(=O)[C@H](C)NC(=O)[C@H](C)NC(=O)[C@H]([C@@H](C)O)NC(=O)[C@H](Cc2ccccc2)NC(=O)[C@@H]2CSSC[C@@H]3NC(=O)[C@H](C)NC(=O)[C@H](CCCCN)NC(=O)[C@H](CO)NC(=O)[C@H](CCCCN)NC(=O)[C@@H]4CSSC[C@H](NC(=O)[C@H](CO)NC(=O)[C@H](CCC(=O)O)NC(=O)CNC(=O)[C@H](CSSC[C@H](NC(=O)CNC1=O)C(=O)N[C@@H](CO)C(=O)N4)NC(=O)[C@@H]1CCCN1C(=O)[C@H](Cc1ccccc1)NC(=O)CNC(=O)[C@H](CC(N)=O)NC(=O)[C@H](CCCCN)NC(=O)[C@H](Cc1ccc(O)cc1)NC3=O)C(=O)N[C@@H](C(C)C)C(=O)N[C@@H](Cc1ccc(O)cc1)C(=O)N[C@@H](CC(C)C)C(=O)N1CCC[C@H]1C(=O)N2 | resazurin | 24 h | – | CC50 | 4.76 ± 0.7 µM |
| C[C@H](NC(=O)[C@H](CCCNC(=N)N)NC(=O)[C@H](CCC(=O)O)NC(=O)[C@H](CCCNC(=N)N)NC(=O)[C@H](CCCNC(=N)N)NC(=O)[C@@H](NC(=O)[C@H](CCCNC(=N)N)NC(=O)[C@H](C)NC(=O)[C@H](CCCNC(=N)N)NC(=O)[C@H](CCC(=O)O)NC(=O)[C@@H](N)CCCNC(=N)N)[C@@H](C)O)C(=O)N[C@@H](CCCNC(=N)N)C(=O)N[C@H](C(=O)N[C@@H](CCCNC(=N)N)C(=O)N[C@@H](CCC(=O)O)C(=O)N[C@@H](CCCNC(=N)N)C(=O)N[C@@H](C)C(=O)N[C@@H](CCCNC(=N)N)C(=O)N[C@H](C(=O)N[C@@H](CCCNC(=N)N)C(=O)O)[C@@H](C)O)[C@@H](C)O | MTT | up to 100 µM, 24 h | – | cytotoxicity | not toxic |
| CCc1ccc(C(=O)N[C@@H](CO)C(=O)N[C@H](C(=O)N2CCC[C@H]2C(=O)N[C@@H](CC(N)=O)C(=O)NCC(=O)N[C@@H](CC(C)C)C(=O)O)[C@@H](C)OP(=O)(O)O)cc1 | – | 30 µM, 24 h | – | viability | 64% |
| CC[C@H](C)[C@@H]1NC(=O)[C@H](C)NC(=O)[C@H](C)NC(=O)[C@H]([C@@H](C)O)NC(=O)[C@H](Cc2ccccc2)NC(=O)[C@@H]2CSSC[C@@H]3NC(=O)[C@H](C(C)C)NC(=O)[C@H](CCCCN)NC(=O)[C@H](CO)NC(=O)[C@H](CCCCN)NC(=O)[C@@H]4CSSC[C@H](NC(=O)[C@H](CO)NC(=O)[C@H](CCC(=O)O)NC(=O)CNC(=O)[C@H](CSSC[C@H](NC(=O)CNC1=O)C(=O)N[C@@H](CO)C(=O)N4)NC(=O)[C@@H]1CCCN1C(=O)[C@H](Cc1ccccc1)NC(=O)[C@H](C)NC(=O)[C@H](CC(N)=O)NC(=O)[C@H](CCCCN)NC(=O)[C@H](Cc1ccc(O)cc1)NC3=O)C(=O)N[C@@H](C(C)C)C(=O)N[C@@H](Cc1ccc(O)cc1)C(=O)N[C@@H](CC(C)C)C(=O)N1CCC[C@H]1C(=O)N2 | resazurin | 24 h | – | CC50 | 0.69 ± 0.02 µM |
| N=C(N)NCCC[C@@H]1NC(=O)[C@H](Cc2csc3ccccc23)NC(=O)[C@@H](Cc2ccccc2)NC(=O)[C@H](Cc2ccccc2)NC(=O)[C@H](CCC(=O)NCCOCCOCC(=O)N[C@@H](CCCCNC(=O)c2ccc3c(c2)C(=O)OC32c3ccc4cc(O)ccc4c3Oc3c2ccc2cc(O)ccc32)C(N)=O)NC(=O)[C@@H](CCCNC(=N)N)NC(=O)[C@H](CCCNC(=N)N)NC(=O)[C@@H](CCCNC(=N)N)NC1=O | – | 5.0 µM, 10% FBS | relative to: CPP12 | endosomal escape efficiency | 383 ± 49% |
| S=c1n(-c2ccccc2)c2c3ccccc3nc3[n+]2[n]1[Ir-3]12([S]3)([c]3cccc4ccc5ccc[n+]1c5c34)[c]1cccc3ccc4ccc[n+]2c4c13 | – | 10 µM, 24 h, added: ER-Tracker Red 1 µM | – | Pearson correlation coefficient | 0.9 |
| CN(C)c1ccc2c(c1)Oc1cc(N(C)C)ccc1C21OC(=O)c2cc(C(=O)NCCCC[C@H](NC(=O)[C@@H](N)CSSC[C@H](N)C(=O)N[C@@H](CCCCNC(=O)c3ccc4c(c3)C(=O)OC43c4ccc(N(C)C)cc4Oc4cc(N(C)C)ccc43)C(=O)N[C@@H](CCCNC(=N)N)C(=O)N[C@@H](CCCNC(=N)N)C(=O)N[C@@H](CCCNC(=N)N)C(=O)N[C@@H](CCCNC(=N)N)C(=O)N[C@@H](CCCNC(=N)N)C(=O)N[C@@H](CCCNC(=N)N)C(=O)N[C@@H](CCCNC(=N)N)C(=O)N[C@@H](CCCNC(=N)N)C(=O)NCC(N)=O)C(=O)N[C@@H](CCCNC(=N)N)C(=O)N[C@@H](CCCNC(=N)N)C(=O)N[C@@H](CCCNC(=N)N)C(=O)N[C@@H](CCCNC(=N)N)C(=O)N[C@@H](CCCNC(=N)N)C(=O)N[C@@H](CCCNC(=N)N)C(=O)N[C@@H](CCCNC(=N)N)C(=O)N[C@@H](CCCNC(=N)N)C(=O)NCC(N)=O)ccc21 | – | 10 µM, 1 h | – | SYTOX Blue-positive cells | 47% |
| CC[C@H](C)[C@@H]1NC(=O)[C@H](C)NC(=O)[C@H](C)NC(=O)[C@H]([C@@H](C)O)NC(=O)[C@H](Cc2ccccc2)NC(=O)[C@@H]2CSSC[C@@H]3NC(=O)[C@H](C(C)C)NC(=O)[C@H](CCCCN)NC(=O)[C@H](CO)NC(=O)[C@H](CCCCN)NC(=O)[C@@H]4CSSC[C@H](NC(=O)[C@H](CO)NC(=O)[C@H](CCC(=O)O)NC(=O)CNC(=O)[C@H](CSSC[C@H](NC(=O)CNC1=O)C(=O)N[C@@H](CO)C(=O)N4)NC(=O)[C@@H]1CCCN1C(=O)[C@H](C)NC(=O)CNC(=O)[C@H](CC(N)=O)NC(=O)[C@H](CCCCN)NC(=O)[C@H](Cc1ccc(O)cc1)NC3=O)C(=O)N[C@@H](C(C)C)C(=O)N[C@@H](Cc1ccc(O)cc1)C(=O)N[C@@H](CC(C)C)C(=O)N1CCC[C@H]1C(=O)N2 | resazurin | 24 h | – | CC50 | 2.85 ± 0.1 µM |
| CC(C)C[C@H](NC(=O)[C@@H]1CCCN1C(=O)CCOCCOCCOCCOCCOCCOCCOCCOCCNC(=S)Nc1ccc2c(c1)C(=O)OC21c2ccc(O)cc2Oc2cc(O)ccc21)C(=O)N[C@@H](Cc1cncn1CCCCCCCCc1ccccc1)C(=O)N[C@@H](CO)C(=O)N[C@H](C(N)=O)[C@@H](C)CP(=O)(O)O | confocal microscopy | 200 µM, 7 h | – | cellular uptake | < 0.4% |
| CC[C@H](C)[C@@H]1NC(=O)[C@H](C)NC(=O)[C@H](C)NC(=O)[C@H]([C@@H](C)O)NC(=O)[C@H](Cc2ccccc2)NC(=O)[C@@H]2CSSC[C@@H]3NC(=O)[C@H](C(C)C)NC(=O)[C@H](CCCCN)NC(=O)[C@H](CO)NC(=O)[C@H](CCCCN)NC(=O)[C@@H]4CSSC[C@H](NC(=O)[C@H](CO)NC(=O)[C@H](CCC(=O)O)NC(=O)CNC(=O)[C@H](CSSC[C@H](NC(=O)CNC1=O)C(=O)N[C@@H](CO)C(=O)N4)NC(=O)[C@@H]1CCCN1C(=O)[C@H](Cc1ccccc1)NC(=O)CNC(=O)[C@H](CC(N)=O)NC(=O)[C@H](CCCCN)NC(=O)[C@H](Cc1ccc(O)cc1)NC3=O)C(=O)N[C@@H](C(C)C)C(=O)N[C@@H](Cc1ccc(O)cc1)C(=O)N[C@@H]([C@@H](C)CC)C(=O)N1CCC[C@H]1C(=O)N2 | resazurin | 24 h | – | CC50 | 0.92 ± 0.07 µM |
| O=C(CN1CCCC1)NNc1ccccc1Sc1cc(Cl)ccc1[N+](=O)[O-] | – | – | – | CC50 | 60 µM |

Repeated from above:
| SMILES | assay | setting | how to read | measurement | value |
| --- | --- | --- | --- | --- | --- |
| CC[C@H](C)[C@@H]1NC(=O)[C@H](C)NC(=O)[C@H](C)NC(=O)[C@H]([C@@H](C)O)NC(=O)[C@H](Cc2ccccc2)NC(=O)[C@@H]2CSSC[C@@H]3NC(=O)[C@H](C)NC(=O)[C@H](CCCCN)NC(=O)[C@H](CO)NC(=O)[C@H](CCCCN)NC(=O)[C@@H]4CSSC[C@H](NC(=O)[C@H](CO)NC(=O)[C@H](CCC(=O)O)NC(=O)CNC(=O)[C@H](CSSC[C@H](NC(=O)CNC1=O)C(=O)N[C@@H](CO)C(=O)N4)NC(=O)[C@@H]1CCCN1C(=O)[C@H](Cc1ccccc1)NC(=O)CNC(=O)[C@H](CC(N)=O)NC(=O)[C@H](CCCCN)NC(=O)[C@H](Cc1ccc(O)cc1)NC3=O)C(=O)N[C@@H](C(C)C)C(=O)N[C@@H](Cc1ccc(O)cc1)C(=O)N[C@@H](CC(C)C)C(=O)N1CCC[C@H]1C(=O)N2 | resazurin | 24 h | – | CC50 | 4.76 ± 0.7 µM |
| CCc1ccc(C(=O)N[C@@H](CO)C(=O)N[C@H](C(=O)N2CCC[C@H]2C(=O)N[C@@H](CC(N)=O)C(=O)NCC(=O)N[C@@H](CC(C)C)C(=O)O)[C@@H](C)OP(=O)(O)O)cc1 | – | 30 µM, 24 h | – | viability | 64% |
